Experimental data gathered from unrelated publications.
Each line is one published result; not all experiments were run side by side. Numbers after ± are the reported error.

Compound | assay | test system | conditions | how to read | endpoint | result
CCCC[C@@H]1NC(=O)[C@@H](NC(=O)[C@H](CCC(=O)O)NC(=O)CNC(=O)CN2CCN(CC(=O)O)CCN(CC(=O)O)CCN(CC(=O)O)CC2)CCCCNC(=O)C[C@@H](C(N)=O)NC(=O)[C@H](C(C)C)NC(=O)[C@@H]2CCCN2C(=O)[C@H](CCCNC(=N)N)NC(=O)CNC(=O)[C@H](Cc2c[nH]c3ccccc23)NC(=O)[C@H](CCCNC(=N)N)NC(=O)[C@@H](Cc2ccccc2)NC(=O)[C@H](Cc2c[nH]cn2)NC(=O)[C@H](CCC(=O)O)NC1=O [gallium-67 labelled] | – | C57 mice, B16/F1 flank melanoma, intestine | intravenous, 0.037 MBq/mouse, 24 h | – | intestine uptake | 0.2 ± 0.01 %ID
O=C(NCCCN(CCCCN(CCCNC(=O)c1cccc(=O)n1[O-])C(=O)c1cccc(=O)n1[O-])C(=O)c1cccc(=O)n1[O-])c1cccc(=O)n1[O-].[89Zr+4] | radio-TLC | PBS | 7 d, pH 7.4, 37 °C, with: Fe^3+ 10-fold excess | – | intact complex | 83 ± 4.2%
C[N+](C)(Cc1cn(CCOCCOCCO[C@@H]2O[C@H](CO)[C@@H](O)[C@H](O)[C@H]2O)nn1)C[B-](F)(F)F | chemical stability, NMR | aqueous buffer | 2 mg/mL, pH 7.5 | – | half-life | 960 h
COc1cccc(C2CC(c3ccccc3Cl)Nc3nc(N)nn32)c1 (centres unmarked) | – | male CD-1 mouse, plasma | intraperitoneal, 20 mg/kg, 30 min, single dose | – | concentration | 158 µM
O=[11C](OC(C(F)(F)F)C(F)(F)F)N1CCC(CNS(=O)(=O)c2ccc(Cl)cc2)CC1 | PET | Sprague-Dawley rat, striatum | intravenous, dose not given, baseline | – | radioactivity uptake | 1.75 SUV
CCC(=O)N[C@@H](C)C(=O)OCC(=O)N[C@@H](C)C(=O)O | – | water | pH 8, 50 °C | – | depolymerization half-life | 3.43 h
CC(C)[C@H](NC(=O)CNC(=O)[C@H](CCC(N)=O)NC(=O)[C@H](C)N)C(=O)O | – | human male, plasma | intravenous infusion, 30 mg/kg single, 15 min infusion, geometric mean | – | half-life | 0.37 h
Nc1ncnc(NCC2CCN(C(=O)C(O)CO)CC2)c1-c1ccc(Oc2ccccc2)cc1 (centres unmarked) | – | male humans, plasma | oral, 75 mg evobrutinib, metabolite | – | plasma half-life | 2.4 h
N=C(N)NCCC[C@@H]1NC(=O)[C@H](Cc2c[nH]c3ccccc23)NC(=O)[C@@H](CC2CCCCC2)NC(=O)[C@@H]2CCCN2C(=O)[C@@H](NC(=O)CCc2ccccc2)CCCNC1=O | – | C57BL/6J mice, plasma | intravenous, 1 mg/kg, two-compartment model | – | elimination rate constant | 0.00282 s⁻¹
O=C([O-])c1cccc(CN(CCN(Cc2cn(Cc3ccccc3)nn2)Cc2cccc(C(=O)[O-])n2)Cc2cn(Cc3ccccc3)nn2)n1.[111In+3] | – | mouse serum | 24 h, 25 °C, with: 111In | – | radiometal bound to chelator | 65%
NC(=O)c1ccc(C(=O)NOCc2ccc(Sc3cccc(Cl)c3)c(C(F)(F)F)c2)cc1 | – | male ICR mouse, plasma | intravenous, 10 mg/kg | – | half-life | 0.28 h
CC/C=C\C/C=C\C/C=C\C/C=C\C/C=C\CCCCOC(CC)C(=O)O (centres unmarked) | radioactivity, 14C-labelled | Wistar rat, male, kidney cortex | oral, 100 mg/kg, 3 days | – | tissue concentration | 1.5 µg equivalents/g tissue
CCC/C(=C\C1=C(C(F)(F)F)C(=O)c2ccccc2C1=O)C(=O)N(CC)CC | – | mouse plasma | 1 µM, 37 °C | – | t1/2 | 2 min
Cc1ncc2c(n1)CN(C(=O)Nc1nc(-c3cccs3)ccc1N)C2 | – | male beagle dog, plasma | oral, 45 mg/kg, multiple doses, once daily | – | AUC | 11500 ng·h/mL
Nc1nccc(-c2cn(C3CC3)c3ccccc23)n1 | radiolabelled metabolite profiling | human male, plasma | oral, 110 mg, 4 h | – | plasma concentration | 46.4 ng/g
CCC(=O)NC1CC=C(c2cc3c(Nc4ccc5scnc5c4)ncnc3s2)CC1 (centres unmarked) | – | BALB/c mouse, plasma | oral, 10 mg/kg, 2 h | – | concentration | 84.5 ng/mL
O=C(c1ccccc1)N1C(c2ccc(OCC3CCN(CCCF)C3)cc2)c2ccc(O)cc2CC12CC2 (centres unmarked) | plasma protein binding | mouse plasma | – | – | fu | 0.0257
COc1cc(NC(C)=O)c2c(c1O)-c1c(OC)c(OC)cc3c1C(C2)N(C)CC3 (centres unmarked) | – | rat brain homogenate | 50 µg/mL, 40 d, -20 °C, long-term storage | – | remaining compound | 86.6 ± 2.2%
CN1C(=O)[C@@H](Cc2ccc(O)c(I)c2)NC(=O)CNC(=O)[C@H](Cc2ccc3ccccc3c2)NC(=O)[C@H](CCCNC(=N)N)NC(=O)[C@H]1CCCNC(=O)c1ccc(CNC(=O)CN2CCN(CC(=O)O)CCN(CC(=O)O)CCN(CC(=O)O)CC2)cc1 [lutetium-177 labelled] | item: 177Lu radioactivity | female CB-17 SCID mice, Daudi xenograft, stomach | intravenous, 0.16 nmol per mouse, 1 h | – | tissue uptake | 1.2 ± 0.3 %ID/g
CC(C)(O)c1ncc([S@](N)(=O)=NC(=O)Nc2c3c(cc4c2CCC4)CCC3)s1 | – | healthy human, fasted | oral, 300 mg single dose, spray-dried dispersion | – | Tmax | 2.53 h
Cc1cc2c(cc1C1(c3ncc(C(=O)O)cn3)CC1)C(C)(C)CCC2(C)C | – | Sprague-Dawley rat, male, plasma | oral, 100 mg/kg, 6 h, sesame oil vehicle | – | HDL level | 47 ± 6 mg/dL
Oc1ccc2ccccc2c1/N=N/c1ccc(/N=N/c2ccccc2)cc1 | – | Sprague-Dawley rats both sexes, whole blood | oral, 50 mg/kg | – | absorption rate constant | 0.437 h⁻¹

Compound | assay | test system | conditions | how to read | endpoint | result
O=C(O)C1OC(Oc2cccc(-c3nc(N4CCOCC4)c4oc5ncccc5c4n3)c2)C(O)C(O)C1O (centres unmarked) | glucuronide formation | human intestinal microsomes | pH 7.4 | – | CLint | 211 ± 32.8 µL/min/mg
CCN(CC)c1ccc2c(-c3ccccc3C(=O)OCCOCCOCC[18F])c3ccc(=[N+](CC)CC)cc-3oc2c1 | microPET | rat, liver | dose not given, 5 min post injection | – | radioactivity concentration | 15 ± 2 kBq/cm³
CC[C@H](C)[C@H](N)C(=O)N[C@@H](CC(C)C)C(=O)N1CCC[C@H]1C(=O)N[C@@H](Cc1c[nH]c2ccccc12)C(=O)N[C@@H](CCCCN)C(=O)N[C@@H](Cc1c[nH]c2ccccc12)C(=O)N1CCC[C@H]1C(=O)N[C@@H](Cc1c[nH]c2ccccc12)C(=O)N[C@@H](Cc1c[nH]c2ccccc12)C(=O)N1CCC[C@H]1C(=O)N[C@@H](Cc1c[nH]c2ccccc12)C(=O)N[C@@H](CCCNC(=N)N)C(=O)N[C@@H](CCCNC(=N)N)C(N)=O | fluorescence spectroscopy | DMPC SUVs | lipid/peptide 50:1, excitation 295 nm, with: lipid 726 µM | – | Trp emission maximum | 353 nm
C=C(c1cc(F)c(C(=O)O)c(F)c1)c1cc2c(cc1C)C(C)(C)CCC2(C)C | – | Sprague-Dawley rat, male, plasma | oral, 100 mg/kg, 2 h, sesame oil vehicle | – | HDL level | 67 ± 3.5 mg/dL
Clc1cccc(-c2nnc(/N=C/C=C/c3ccccc3)nc2/N=C/C=C/c2ccccc2)c1Cl | rotarod test | white albino mice, both sexes | intraperitoneal, 50 mg/kg | – | time on rotating rod | 55.6 ± 12.3 s
CC(C)c1cnc(-c2cc(Cl)ccc2F)cc1Nc1ccncc1C(=O)NC(CO)CO | item: pyrexia | human patients | oral, dose not given, grade 1 | – | patients with related SAE | 0%
C[C@@H](C(=O)O)N(CC(=O)N(CCS)CC(N)=O)C(=O)CN(C(=O)CN(C(=O)CN(C(=O)CN(C(=O)CN(C(=O)CN(C(=O)CN(C(=O)CN(C(=O)CN(C(=O)CN(C(=O)CN(C(=O)CN(CCS)C(=O)CN1CCNCC1)[C@@H](C)c1ccccc1)[C@@H](C)C(=O)O)[C@@H](C)C(=O)O)[C@@H](C)c1ccccc1)[C@@H](C)C(=O)O)[C@@H](C)C(=O)O)[C@@H](C)c1ccccc1)[C@@H](C)C(=O)O)[C@@H](C)C(=O)O)[C@@H](C)c1ccccc1)[C@@H](C)C(=O)O | – | distilled water | – | – | water solubility | ≥ 15 mM
Brc1ccc(Nc2nc(NN=Cc3c[nH]c4ccccc34)nc(N3CCOCC3)n2)cc1 | – | mouse liver microsomes | in vivo extrapolated | – | CLint | 11.9 mL/min
CC(C)C[C@H](NC(=O)[C@H](CC(C)C)NC(=O)[C@@H](NC(=O)[C@H](Cc1ccccc1)NC(=O)[C@@H](Cc1c[nH]c2ccccc12)NC(=O)[C@@H](N)CCCCN)[C@@H](c1ccccc1)c1c[nH]c2ccccc12)C(N)=O | RP-HPLC Kinetex Biphenyl | – | acetonitrile/water TFA gradient | – | HPLC retention | 43.1 %B
Cn1c(=O)oc2ccc(-c3ccc(CC(C#N)NC(=O)C4CNCCCO4)c(F)c3)cc21 (centres unmarked) | – | human | oral, 10 mg once daily, TEAE, multiple ascending dose | – | bilirubin increased incidence | 0%
O=c1nc(NO)ccn1[C@@H]1O[C@H](CO)[C@@H](O)[C@H]1O | RT-PCR, item: CYP2B2 | rat, arthritis model, liver | oral, 80 mg/kg twice daily, 5 days | baseline: untreated arthritic rats | mRNA level | 0.8 fold
CCCCCCCCCCCCCCCCCC(=O)Nc1ccn(C2OC(CO)C(O)C2(F)F)c(=O)n1 (centres unmarked) | dialysis | PBS | pH 7.4, 37 °C | – | release half-life | 2.11 h
NCCCNc1nc2cc(Cl)ccc2n1Cc1ccccc1 | metabolic stability | mouse, liver microsomes | 0.1 µM, 30 min, pH 7.4 | – | compound remaining | 89.8%
COc1ccc(/C=C/C2=[N+]3C(=C(CO)c4c(C)cc(/C=C/c5ccc(OC)cc5)n4[B-]3(F)F)C(C)=C2)cc1 | – | acetonitrile | room temperature | – | luminescence quantum yield | 10 ± 2%
CC(C)C[C@@H](NC(=O)[C@H](NC(=O)[C@H]1CCCN1)[C@H](C)O)C(=O)N[C@H](Cc1c[nH]cn1)C(=O)N[C@@H](C(=O)N[C@H](Cc1c[nH]cn1)C(=O)N[C@H](CC(N)=O)C(=O)N[C@H](CCCNC(=N)N)C(=O)N[C@H](CCCNC(=N)N)C(=O)N[C@H](CCCNC(=N)N)C(=O)N[C@H](CCCNC(=N)N)C(=O)N[C@H](CCCNC(=N)N)C(N)=O)[C@H](C)O | – | beagle dog, plasma | oral, 20 mg/kg, single dose | – | AUC(0-inf) | 3890 ng·h/mL
OC1(C(F)(F)F)CCN(c2nc(Nc3ccnc(C(F)(F)F)c3)nc(-c3cccc(C(F)(F)F)n3)n2)C1 (centres unmarked) | – | monkey, both sexes, blood | intravenous, 1 mg/kg | – | half-life | 12.2 h
Cc1cccc(-c2cccc(C)n2)n1.O.O.[Cl-].[Cl-].[Ru+2].c1ccc(-c2ccnc3c2ccc2c(-c4ccccc4)ccnc23)cc1 | – | phosphate buffer with NaCl | pH 7.4, 37 °C, photoactivated, dialysis | – | release from nanoassemblies | 55.9%
NS(=O)(=O)c1ccc(N2N=C(C(F)(F)F)CC2c2ccc(F)cc2F)cc1 (centres unmarked) | – | Beagle dog, male, arthritis model, plasma | oral, 4 mg/kg, second dose day 12, day 14 | – | plasma concentration | 658 ± 496 ng/mL
Cc1ccc(OCC(=O)N(Cc2cccs2)c2ccn[nH]2)cc1 | – | male beagle dog, plasma | oral, 30 mg/kg, single dose | – | AUC(0-t) | 223 ng·h/mL
CC(C)(Sc1cc[n+]([O-])cc1-c1ccc(C#N)c2ccccc12)C(=O)OC1OC(C(=O)O)C(O)C(O)C1O (centres unmarked) | – | plasma | oral, 15 mg, severe renal impairment, fasted | – | terminal half-life | 22.8 h
N#CC1(c2ccc3c(N)ncnn23)OC(COP(=O)(O)O)C(O)C1O (centres unmarked) | LC-MS/MS | CD-1 mouse, lung | oral, 100 mg/kg of remdesivir | – | AUC(0-t) | 1330 nmol·h/kg
N=C(N)NCCC[C@H](NC(=O)[C@H](Cc1c[nH]c2ccccc12)NC(=O)[C@H](CCC(N)=O)NC(=O)[C@H](Cc1c[nH]c2ccccc12)NC(=O)[C@@H](N)CCCNC(=N)N)C(=O)N[C@@H](Cc1c[nH]c2ccccc12)C(=O)N[C@@H](CCC(N)=O)C(=O)N[C@@H](Cc1c[nH]c2ccccc12)C(N)=O | – | erythrocytes | – | – | haemolytic concentration | > 12.5 µg/mL
